Measurements from different studies.
Lines come from different studies, so protocols differ.
Organism: Candida albicans

SMILES | test | system | conditions | MIC
C#Cc1ccc(O)c(C=NNC(=O)c2cc(Br)cc(Br)c2O)c1 |  | A39 | 48 h | 0.5 µg/mL
CC[C@H](C)[C@H](NC(=O)CN)C(=O)NCC(=O)N[C@@H](C)C(=O)N[C@H](C(=O)N[C@@H](CC(C)C)C(=O)N[C@@H](CCCCN)C(=O)N[C@H](C(=O)N[C@@H](CC(C)C)C(=O)N[C@H](C(=O)N[C@H](C(=O)NCC(=O)N[C@@H](CC(C)C)C(=O)N1CCC[C@H]1C(=O)N[C@@H](C)C(=O)N[C@@H](CC(C)C)C(=O)N[C@H](C(=O)N[C@@H](CO)C(=O)N[C@@H](Cc1c[nH]c2ccccc12)C(=O)N[C@H](C(=O)N[C@@H](CCCCN)C(=O)N[C@@H](CCCNC(=N)N)C(=O)N[C@@H](CCCCN)C(=O)N[C@@H](CCCNC(=N)N)C(=O)N[C@@H](CCC(N)=O)C(=O)N[C@@H](CCC(N)=O)C(N)=O)[C@@H](C)CC)[C@@H](C)CC)[C@@H](C)O)[C@@H](C)O)C(C)C)C(C)C | broth microdilution | SP3903, RPMI 1640-MOPS | 48 h, 30 °C | 2 µM
CC(C)C[C@H](NC(=O)[C@H](Cc1c[nH]c2ccccc12)NC(=O)[C@H](CC(C)C)NC(=O)[C@@H](NC(=O)[C@H](CC(C)C)NC(=O)[C@H](CCCNC(=N)N)NC(=O)[C@@H](N)CCCNC(=N)N)[C@@H](C)O)C(=O)N[C@H](C(=O)N[C@@H](CC(C)C)C(=O)N[C@@H](CCCNC(=N)N)C(=O)N[C@@H](CCCNC(=N)N)C(N)=O)[C@@H](C)O |  | CGMCC 2.209, RPMI 1640 MOPS-buffered | 48 h, 37 °C, tested up to 128 µM | 2 µM
CC(C)C[C@H](NC(=O)[C@@H](NC(=O)[C@H](Cc1c[nH]c2ccccc12)NC(=O)[C@H](Cc1c[nH]c2ccccc12)NC(=O)[C@H](CCCNC(=N)N)NC(=O)[C@@H](N)CCCNC(=N)N)[C@@H](C)O)C(=O)N[C@H](C(N)=O)C(C)C |  |  |  | 32 µg/mL
C[C@@H](O)[C@H](NC(=O)[C@H](Cc1ccccc1)NC(=O)[C@H](Cc1c[nH]c2ccccc12)NC(=O)[C@H](Cc1ccccc1)NC(=O)[C@@H](NC(=O)[C@H](Cc1ccccc1)NC(=O)[C@H](CCCNC(=N)N)NC(=O)[C@@H](N)CCCNC(=N)N)[C@@H](C)O)C(=O)N[C@@H](Cc1ccccc1)C(=O)N[C@@H](CCCNC(=N)N)C(=O)N[C@@H](CCCNC(=N)N)C(N)=O |  | CGMCC 2.209, RPMI 1640 MOPS-buffered | 48 h, 37 °C, tested up to 128 µM | 2 µM
CC[C@H](C)[C@H](NC(=O)[C@H](CCCNC(=N)N)NC(=O)[C@H](Cc1c[nH]c2ccccc12)NC(=O)[C@H](CCCNC(=N)N)NC(=O)[C@H](Cc1c[nH]c2ccccc12)NC(=O)[C@H](Cc1c[nH]c2ccccc12)NC(=O)[C@H](Cc1c[nH]c2ccccc12)NC(=O)[C@H](CCCNC(=N)N)NC(=O)[C@H](Cc1c[nH]c2ccccc12)NC(=O)[C@@H](N)CCCNC(=N)N)C(N)=O | broth microdilution | CGMCC 2.209, RPMI 1640-MOPS | 48 h, 30 °C, together with: NaCl 150 mM | 32 µM
CC(=O)N1CCN(c2ccc(OCC3COC(Cn4ccnc4)(c4ccc(Cl)cc4Cl)O3)cc2)CC1 (centres unmarked) |  | 2.209 | before resistance passaging | 4 µM
C#Cc1ccc(O)c(C=NNC(=O)c2ccc(COC)cc2)c1 |  | A39 | 48 h | 4 µg/mL
CC(C)[C@H](NC(=O)[C@@H](NC(=O)[C@@H](NC(=O)[C@H](Cc1c[nH]c2ccccc12)NC(=O)[C@H](Cc1c[nH]c2ccccc12)NC(=O)[C@H](CCCNC(=N)N)NC(=O)[C@@H](N)CCCNC(=N)N)[C@@H](C)O)C(C)C)C(N)=O |  |  |  | 64 µg/mL
CC(C)C[C@H](NC(=O)[C@H](CCCCN)NC(=O)[C@H](CO)NC(=O)[C@H](CC(C)C)NC(=O)[C@H](CC(C)C)NC(=O)CNC(=O)[C@H](CC(C)C)NC(=O)[C@H](CCCCN)NC(=O)[C@H](CC(C)C)NC(=O)[C@H](CC(C)C)NC(=O)[C@H](CC(C)C)NC(=O)CNC(=O)[C@H](CO)NC(=O)[C@H](Cc1c[nH]c2ccccc12)NC(=O)[C@@H](N)CCCCN)C(N)=O | broth microdilution | ATCC 10231 | 44 h, 37 °C | > 100 µM
CC[C@H](C)[C@H](NC(=O)CN)C(=O)N[C@@H](C)C(=O)N[C@@H](CCCCN)C(=O)N[C@@H](Cc1ccccc1)C(=O)N[C@H](C(=O)N[C@@H](CCCCN)C(=O)N[C@@H](CCCCN)C(=O)N[C@H](C(=O)N[C@@H](C)C(=O)N[C@@H](CCCCN)C(=O)N[C@@H](C)C(=O)N[C@@H](CC(C)C)C(=O)N[C@@H](CCCNC(=N)N)C(N)=O)[C@@H](C)CC)[C@@H](C)CC |  | ATCC 90029, RPMI MOPS | 24 h, pH 7.0, 33 °C | 64 µg/mL
N=C(N)NCCC[C@H](NC(=O)[C@H](Cc1c[nH]c2ccccc12)NC(=O)[C@H](CCCNC(=N)N)NC(=O)[C@H](Cc1c[nH]c2ccccc12)NC(=O)[C@H](Cc1c[nH]c2ccccc12)NC(=O)[C@H](Cc1c[nH]c2ccccc12)NC(=O)[C@H](CCCNC(=N)N)NC(=O)[C@H](Cc1c[nH]c2ccccc12)NC(=O)[C@@H](N)CCCNC(=N)N)C(N)=O | broth microdilution | CGMCC 2.209, RPMI 1640-MOPS | 48 h, 30 °C, together with: KCl 4.5 mM | 8 µM
CC[C@H](C)C[C@H](C)CCCCCCCCC(=O)N[C@H]1C[C@@H](O)[C@@H](NCCN)NC(=O)[C@@H]2[C@@H](O)CCN2C(=O)[C@H]([C@H](O)CCN)NC(=O)[C@H]([C@H](O)[C@@H](O)c2ccc(O)cc2)NC(=O)[C@@H]2C[C@@H](O)CN2C(=O)[C@H]([C@@H](C)O)NC1=O | EUCAST broth microdilution | clinical isolate, RPMI 1640 with MOPS | pH 7.0, 37 °C, 2% glucose | 0.06 µg/mL
CC[C@H](C)[C@H](NC(=O)[C@H](CCCNC(=N)N)NC(=O)[C@H](Cc1c[nH]c2ccccc12)NC(=O)[C@H](CCCNC(=N)N)NC(=O)[C@H](Cc1c[nH]c2ccccc12)NC(=O)[C@H](Cc1c[nH]c2ccccc12)NC(=O)[C@H](Cc1c[nH]c2ccccc12)NC(=O)[C@H](CCCNC(=N)N)NC(=O)[C@H](Cc1c[nH]c2ccccc12)NC(=O)[C@H](CCCNC(=N)N)NC(=O)CN)C(N)=O |  | CGMCC 2.209 | no added salts | 8 µM
CC[C@H](C)[C@H](NC(=O)CN)C(=O)NCC(=O)N[C@@H](C)C(=O)N[C@H](C(=O)N[C@@H](CC(C)C)C(=O)N[C@@H](CCCCN)C(=O)N[C@H](C(=O)N[C@@H](CC(C)C)C(=O)N[C@H](C(=O)N[C@H](C(=O)NCC(=O)N[C@@H](CC(C)C)C(=O)N1CCC[C@H]1C(=O)N[C@@H](C)C(=O)N[C@@H](CC(C)C)C(=O)N[C@H](C(=O)N[C@@H](CO)C(=O)N[C@@H](Cc1c[nH]c2ccccc12)C(=O)N[C@H](C(=O)N[C@@H](CCCCN)C(=O)N[C@@H](CCCNC(=N)N)C(=O)N[C@@H](CCCCN)C(=O)N[C@@H](CCCNC(=N)N)C(=O)N[C@@H](CCC(N)=O)C(=O)N[C@@H](CCC(N)=O)C(N)=O)[C@@H](C)CC)[C@@H](C)CC)[C@@H](C)O)[C@@H](C)O)C(C)C)C(C)C | broth microdilution | SP 3902, RPMI-1640 | 48 h, 30 °C | 4 µM
N=C(N)NCCC[C@H](NC(=O)[C@H](Cc1c[nH]c2ccccc12)NC(=O)[C@H](CCCNC(=N)N)NC(=O)[C@H](Cc1c[nH]c2ccccc12)NC(=O)[C@H](Cc1c[nH]c2ccccc12)NC(=O)[C@H](Cc1c[nH]c2ccccc12)NC(=O)[C@H](CCCNC(=N)N)NC(=O)[C@H](Cc1c[nH]c2ccccc12)NC(=O)[C@H](CCCNC(=N)N)NC(=O)CN)C(N)=O | broth microdilution | CGMCC 2.209, RPMI 1640-MOPS | 48 h, 30 °C, together with: NaCl 150 mM | 8 µM
CC[C@H](C)[C@H](NC(=O)[C@H](CCCCN)NC(=O)[C@@H](NC(=O)[C@@H](NC(=O)[C@H](CC(C)C)NC(=O)[C@H](CCCNC(=N)N)NC(=O)[C@@H](NC(=O)[C@H](CC(C)C)NC(=O)[C@H](CCCNC(=N)N)NC(=O)CNC(=O)[C@H](Cc1ccccc1)NC(=O)[C@@H](N)CCCNC(=N)N)[C@@H](C)CC)[C@@H](C)CC)C(C)C)C(=O)N[C@@H](C)C(=O)N[C@@H](CCCNC(=N)N)C(=O)N[C@@H](CCCNC(=N)N)C(=O)N[C@@H](C)C(=O)N[C@@H](Cc1c[nH]cn1)C(=O)N[C@@H](CCCNC(=N)N)C(=O)N[C@@H](C)C(=O)N[C@@H](CCCNC(=N)N)C(=O)N[C@@H](CO)C(=O)N[C@@H](C)C(=O)N[C@H](C(=O)N[C@@H](CCCCN)C(=O)N[C@@H](C)C(=O)N[C@@H](C)C(=O)N[C@@H](CO)C(=O)N[C@@H](CC(N)=O)C(=O)N[C@H](C(=O)N[C@@H](C)C(=O)N[C@@H](CCC(=O)O)C(=O)N[C@@H](CC(C)C)C(=O)N[C@@H](C)C(=O)N[C@@H](Cc1c[nH]cn1)C(=O)NCC(=O)N[C@@H](CCC(=O)O)C(=O)O)C(C)C)C(C)C | broth microdilution |  | 36 h, 35 °C | > 8.01 µM

A few entries again:
SMILES | test | system | conditions | MIC
CC(C)[C@H](NC(=O)[C@@H](NC(=O)[C@@H](NC(=O)[C@H](Cc1c[nH]c2ccccc12)NC(=O)[C@H](Cc1c[nH]c2ccccc12)NC(=O)[C@H](CCCNC(=N)N)NC(=O)[C@@H](N)CCCNC(=N)N)[C@@H](C)O)C(C)C)C(N)=O |  |  |  | 64 µg/mL
CC[C@H](C)[C@H](NC(=O)CN)C(=O)NCC(=O)N[C@@H](C)C(=O)N[C@H](C(=O)N[C@@H](CC(C)C)C(=O)N[C@@H](CCCCN)C(=O)N[C@H](C(=O)N[C@@H](CC(C)C)C(=O)N[C@H](C(=O)N[C@H](C(=O)NCC(=O)N[C@@H](CC(C)C)C(=O)N1CCC[C@H]1C(=O)N[C@@H](C)C(=O)N[C@@H](CC(C)C)C(=O)N[C@H](C(=O)N[C@@H](CO)C(=O)N[C@@H](Cc1c[nH]c2ccccc12)C(=O)N[C@H](C(=O)N[C@@H](CCCCN)C(=O)N[C@@H](CCCNC(=N)N)C(=O)N[C@@H](CCCCN)C(=O)N[C@@H](CCCNC(=N)N)C(=O)N[C@@H](CCC(N)=O)C(=O)N[C@@H](CCC(N)=O)C(N)=O)[C@@H](C)CC)[C@@H](C)CC)[C@@H](C)O)[C@@H](C)O)C(C)C)C(C)C | broth microdilution | SP3903, RPMI 1640-MOPS | 48 h, 30 °C | 2 µM
